Published values from different studies.
A part holds a random share of what one study measured. Substitutions count along the parent as printed.

Sample 1
Target: Histone acetyltransferase KAT6A, both winged helices, GST fusion (KAT6A, Homo sapiens, UniProt Q92794, residues 1-181)
Technique: protein binding microarray
Molecule type: double-stranded DNA, one strand shown
Sample: in vitro
Concentration: not given
Notes: 8-mer, flanks averaged, mean of 2 arrays, mostly near background
Relative to: not given
Reading: higher = stronger binding
Endpoint: E-score
Target sequence (chain): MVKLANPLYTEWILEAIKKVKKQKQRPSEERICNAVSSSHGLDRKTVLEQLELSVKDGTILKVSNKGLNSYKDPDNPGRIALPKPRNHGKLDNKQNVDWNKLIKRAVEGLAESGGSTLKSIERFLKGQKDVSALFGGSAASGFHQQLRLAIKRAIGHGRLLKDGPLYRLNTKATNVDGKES
CACAGCAG: -0.149
CTGCAAGC: -0.0721
AGGAAGAA: -0.137
GTACTGTA: -0.0509
TGAGTGAA: -0.162
CCGAAAGA: -0.0569
CGCCTAGC: 0.142
AGCTTAGG: -0.187

Sample 2
Target: Prothrombin, mature alpha-thrombin (F2, Homo sapiens, UniProt P00734)
Technique: aptamer microarray, sandwich
Molecule type: DNA with 2'F-ANA
Sample: in vitro
Concentration: 200 nM
Notes: whole 15-mer aptamer, many near background
Together with: Cy3 exosite-II aptamer, 400 nM
Reading: higher = stronger binding
Endpoint: mean fluorescence intensity
Sequence: GGTTGGTGTGGTTGG
2'F-ANA at 1 4 5 6 7 8 9 10 12: 52.1 a.u.
2'F-ANA at 1 2 4 5 6 8 14 15: 51.5 a.u.
2'F-ANA at 1 2 4 5 6 11 12 14 15: 54.1 a.u.
2'F-ANA at 5 7 9 11 12 14: 147 a.u.
2'F-ANA at 3 4 5 10 13: 65.7 a.u.
2'F-ANA at 1 2 3 5 10 11 12 13 15: 71.1 a.u.
2'F-ANA at 1 4 8 10 12 13: 50.3 a.u.
2'F-ANA at 1 2 10 11 13 14: 53.6 a.u.

Sample 3
Target: tungstate, free oxyanion
Technique: microfluidic competitive inhibition
Sample: in vitro, cell-free expressed
Concentration: not given
Notes: derived from inhibition constants, unchanged parent 2230 nM
Reading: lower = stronger binding
Endpoint: oxyanion analog dissociation constant
Starting sequence: PafA, mature enzyme, eGFP fusion (Elizabethkingia meningoseptica, UniProt Q9KJX5); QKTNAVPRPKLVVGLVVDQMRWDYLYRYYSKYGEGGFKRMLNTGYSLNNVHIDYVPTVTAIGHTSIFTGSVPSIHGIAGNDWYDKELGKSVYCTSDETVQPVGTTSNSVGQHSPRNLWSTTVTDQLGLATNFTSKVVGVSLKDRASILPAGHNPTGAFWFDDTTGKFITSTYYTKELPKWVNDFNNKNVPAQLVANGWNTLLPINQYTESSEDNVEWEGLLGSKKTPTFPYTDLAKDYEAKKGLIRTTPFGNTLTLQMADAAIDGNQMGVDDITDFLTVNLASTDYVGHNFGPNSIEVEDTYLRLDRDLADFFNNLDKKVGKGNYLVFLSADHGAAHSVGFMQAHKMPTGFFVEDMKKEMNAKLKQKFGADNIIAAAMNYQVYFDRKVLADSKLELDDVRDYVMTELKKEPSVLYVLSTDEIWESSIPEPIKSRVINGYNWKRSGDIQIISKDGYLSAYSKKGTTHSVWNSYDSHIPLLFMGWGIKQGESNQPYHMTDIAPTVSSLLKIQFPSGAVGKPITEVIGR
L479V: 2.31 µM
T301V: 1.95 µM
T130V: 2.13 µM
T521G: 2.03 µM

Sample 4
Target: CCNB1, cyclin fold, Cln2 fusion (human)
Technique: yeast growth competition, sequencing
Sample: yeast
Notes: strong parent motif
Relative to: not given
Reading: higher = stronger binding
Endpoint: normalised enrichment score
Starting sequence: viral docking peptide; KGVKRKLFAEDSS; partner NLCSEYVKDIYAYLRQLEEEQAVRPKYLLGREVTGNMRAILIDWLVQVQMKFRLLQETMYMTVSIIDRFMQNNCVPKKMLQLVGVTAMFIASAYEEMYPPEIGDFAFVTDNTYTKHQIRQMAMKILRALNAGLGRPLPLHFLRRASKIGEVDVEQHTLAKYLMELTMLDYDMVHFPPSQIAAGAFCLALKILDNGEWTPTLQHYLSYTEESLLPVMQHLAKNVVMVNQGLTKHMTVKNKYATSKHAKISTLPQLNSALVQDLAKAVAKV
K4V: 5.02
A9T: 1.82
K6S: 1.2
L7G: 0.172
R5P: -0.0608
K4M: 1.5
S12K: 1.61
K6N: 0.812
F8M: 0.138
F8G: 0.368
K4A: 3.19
V3P: 0.89
S12F: 2.6
G2W: 1.05
G2A: 2.07
R5N: 0.147
G2H: 1.71

For quick reference, copied from above (sample 1):
AGCTTAGG: -0.187
CGCCTAGC: 0.142
